Measurements pooled from the literature.
A part holds a random share of what one study measured.

Set 1
Target: RING finger protein unkempt homolog, zinc fingers 1-6, GST-SBP tag (UNK, Homo sapiens, UniProt Q9C0B0, residues 30-357)
Sequence of UniProt Q9C0B0 (30-357, looked up): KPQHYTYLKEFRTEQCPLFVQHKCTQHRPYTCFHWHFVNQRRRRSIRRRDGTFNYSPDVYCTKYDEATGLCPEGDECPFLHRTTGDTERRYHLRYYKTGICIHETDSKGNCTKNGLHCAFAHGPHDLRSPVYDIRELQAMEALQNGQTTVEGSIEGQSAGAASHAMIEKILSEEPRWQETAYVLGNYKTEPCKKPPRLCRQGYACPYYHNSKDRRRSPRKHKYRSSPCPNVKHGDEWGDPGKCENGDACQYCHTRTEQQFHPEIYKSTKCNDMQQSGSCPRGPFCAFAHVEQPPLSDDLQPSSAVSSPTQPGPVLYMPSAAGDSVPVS
Method: RNA Bind-n-Seq
Molecule type: RNA
Matrix: in vitro
Tested at: not given
Notes: RNA with constant flanks, human and mouse sites, ends assumed
Relative to: input RNA pool
Direction: higher = stronger binding
Sequence | bound/input enrichment [ratio]
GGGAGUUCUACAGUCCGACGAUCUCUCUCGAGUUGAAGAAGACUAUCUCUGGAGGAUAAAACAACUAGGAUCCCACUCUCCAGUAGCACUUUUGAAUACCCUAUUCUACUUUAACACUAAGUAUUUUGGCCUGAAAACAGUGGCAACAGAGGAUUGAGCAUCA | 1.04
GGGAGUUCUACAGUCCGACGAUCAUGGAUGACAAGGCUUCUGUUGGAAAAAUCAGUGUCUCUUCAGACUCAGUAUCUACUCUUAAUAGUGAAGAUUUUGUCUUGGUUUCCAGGCAAGGAGAUGAGACACCAUCUACAAAUAAUCAACAGAGGAUUGAGCAUCA | 0.271
GGGAGUUCUACAGUCCGACGAUCUCUAGAGCUCCCCCAAGACUGACUGUAGUGUCCCCUAACCGAGCUACUUCAACGGAAACUAGCUCAUCUGUAGAGACUGAUUUGCAACCCUUCCGGGAAGCCAUAGCUCUGCAUGGUCUUCAACAGAGGAUUGAGCAUCA | 1.47
GGGAGUUCUACAGUCCGACGAUCGCUACUGCAGCUGCACCUAUGAUUGGUUAUCCAAUGCCAACAGGAUAUUCCCAAUAAGACUUUAGAAGUAUAUGUAAAUGUCUGUUUUUCAUAAUUGCUCUUUAUAUUGUGUGUUAUCUGCAACAGAGGAUUGAGCAUCA | 1.26

Set 2
Target: Hepatocyte nuclear factor 3-alpha (Foxa1, Mus musculus, UniProt P35582, residues 1-468, full length assumed)
Method: EMSA with sequencing
Molecule type: double-stranded DNA, one strand shown
Matrix: in vitro
Tested at: 10 and 20 nM
Notes: whole designed probe, mean of two concentrations, ends assumed
Relative to: negative control set to 0
Direction: higher = stronger binding
Construct (chain): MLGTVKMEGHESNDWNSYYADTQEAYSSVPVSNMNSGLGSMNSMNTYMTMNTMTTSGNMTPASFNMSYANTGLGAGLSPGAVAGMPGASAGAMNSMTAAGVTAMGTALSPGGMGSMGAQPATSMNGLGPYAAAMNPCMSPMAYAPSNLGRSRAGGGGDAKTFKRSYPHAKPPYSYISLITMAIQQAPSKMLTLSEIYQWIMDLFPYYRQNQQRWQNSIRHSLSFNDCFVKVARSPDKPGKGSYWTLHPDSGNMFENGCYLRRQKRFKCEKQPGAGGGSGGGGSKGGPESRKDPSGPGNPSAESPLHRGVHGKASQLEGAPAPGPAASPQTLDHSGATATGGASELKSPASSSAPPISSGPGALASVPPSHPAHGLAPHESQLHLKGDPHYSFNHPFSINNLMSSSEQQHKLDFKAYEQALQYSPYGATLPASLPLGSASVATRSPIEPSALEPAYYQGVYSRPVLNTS
Sequence | normalised bound fraction [ratio]
GTGAGCGGTGCCCATTGATGGGGAACTAAGTAATGCATTTCTGTGATTCAACAAAGATCTATCTCACAGAGATATCTCATTCTGCTCCCTTCCCCCAGTCACATTCTTCTTTGTCTTATGTAATCTTGTCTTGTTTTTTTTTGTTTGCTTCTAGATTATCCTTCAAGTGGGTTTTTTGTTTTTTGTTCTGTCACTATTATATATTTCTCTTCACTCCTGTTTCACTGGGATCGTGGGGAC | 0.136
GTGAGCGGTGCCCATTGATGGGGAACATCTTCCCCCTCTTCCTTGCCCCACCAGCTCACCTTCCCGGGTTATTTGCAGATAGGAAAATAAATAAAGCCGGCATTCGTTAACCCTCTTCTGGCGCAAACTGCTGTTTGCTCTGGATGAATCATGGTCCTTTGGCGACGCCAGGCTCCGGGAGAGCAAAGCTTTTTTTTTGGGCCATGATCCGGGGTGGCCTTTCACTGGGATCGTGGGGAC | 0.33
GTGAGCGGTGCCCATTGATGGGGAACCATGTTCCAAGAGAAGAGAAGGTAAAGCAGTGTCTATGTTACAAACAAAAAGGAACTGAGCTACAAGACTGAAAAACTGAAAGAAACAGCAATGTAAACAAGCCGTTTACTTGACATCATAAATGTATCTTTGGCTTTCTACTCCTCTCCCTCAAAAAAAAGGAAAGAAAACGTATCAAAATAGGTTAGGCAGTTTCACTGGGATCGTGGGGAC | 0.427

Set 3
Target: Centromere-binding protein 1, full length, His-tagged (CBF1, Saccharomyces cerevisiae, UniProt P17106, residues 1-351)
Sequence of UniProt P17106 (whole entry, looked up): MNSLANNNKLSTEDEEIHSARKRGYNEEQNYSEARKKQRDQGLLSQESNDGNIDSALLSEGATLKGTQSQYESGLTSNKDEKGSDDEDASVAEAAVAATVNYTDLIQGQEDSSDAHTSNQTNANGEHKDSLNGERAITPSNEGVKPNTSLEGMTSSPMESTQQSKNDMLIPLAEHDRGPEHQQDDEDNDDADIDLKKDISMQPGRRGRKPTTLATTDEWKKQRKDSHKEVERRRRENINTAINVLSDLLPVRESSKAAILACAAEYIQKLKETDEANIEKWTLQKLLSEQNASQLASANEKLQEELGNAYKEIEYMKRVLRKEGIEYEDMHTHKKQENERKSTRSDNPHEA
Method: competition protein-binding microarray
Molecule type: double-stranded DNA, one strand shown
Matrix: in vitro
Tested at: 2 µM
Notes: whole 60-bp probe, lowest competitor level
Together with: Pho4 competitor, 0.05 µM
Direction: higher = stronger binding
Sequence | fluorescence intensity [a.u.]
CATACCCAACCTTTTCACGTGATATAAGATATTTGTGTCTTGATTCGCTTGACGCTGCTG | 3790
TGTATAAGGACTACCCACGTGAGACCGTTTCCAAACGTCTTGATTCGCTTGACGCTGCTG | 910
CTTTCCCGATCTTGATCAGTGGGTGTAGCACATTTGGTCTTGATTCGCTTGACGCTGCTG | 63.7

Mixed results
Substance | target | assay | system | conditions | how to read | measurement | result
PhoQ, residues 284 288 289 292 302 303 GLASVI | PhoP, residues 12 14 15 18 19 IQSYL (Escherichia coli, UniProt P23836) | Sort-seq, item: YFP reporter | E. coli | PhoQ-PhoP variant library, together with: 10 µM Mg2+ | relative to: high Mg2+ state, higher = stronger signaling | fold induction | 8.34

Repeated from above (set 3):
Sequence | fluorescence intensity [a.u.]
TGTATAAGGACTACCCACGTGAGACCGTTTCCAAACGTCTTGATTCGCTTGACGCTGCTG | 910
